# Results of several laboratories.
# Numbered parts are unrelated; each lists some results of a single study. Substitutions count along the parent as printed.

# Set 1
# Target: Fragile X messenger ribonucleoprotein 1, C-terminal low-complexity region (Fmr1, Mus musculus, UniProt P35922)
# Method: RNA Bind-n-Seq
# Molecule type: RNA
# Sample: in vitro
# Tested at: 200 nM
# Notes: whole 134-nt RNA, ends assumed
# With: 150 mM LiCl
# Reference: input library
# Direction: higher = stronger binding
# Library: 7-deaza-guanosine replaces G
# Constant ends, left off below: GGGAGUUCUACAGUCCGACGAUC … UGGAAUUCUCGGGUGUCAAGG
Strand,log2 enrichment
ACCAUGCAGGUGGGCAUCUUUGGGAAGUGGGGCAAGGGGGGGAUAGGGAGGGGGGUAACACUUUGGGAACAGGGGGUCCCAGGUCGUUUC,1.34
AUUUCUCAGUUGAAGGAUGCUUACACUCUUGUCCAUCUAGACCUCAAUUACUGUUUUUCAGGAAUGUCUGAUCACAGAUACGGGGAUGGU,-2.31
GUCCUGUGCUACACAUCGUAUGUACCGAAUCGGUUUUUUUGGAAAAAGGAAAAAAAGGAAAGUAUUAUGUUACGCCGUUCGGAUCUGCAC,-2.49
CACAGACAACACGCACCCACACUGACACAGAGGGAAGGGGUUGGGAUGGGGACAGGGUGCACAGCAGGGCGGGGUAGGACCCCAGCCCCU,0.522
UGGGAGGUGGAUUUUGUUUAUUUUUUUAGCUCGUUUCCAGGGGUGGGAAUUUUUUUUUAAUAUGUGUCAUGAAUAAAGUUGUUUUUGAAA,0.609
CCUGUGCUACACAUCGUAUGUACCGAAUCGGGUUUUUUUGGGUUUUUUUGGGUUUUUGGGAAAGUAUUAUGUUACGCCGUUCGGAUCUGC,-1.03
CAAGUCCUGUGCUACACAUCGUAUGUACCGAAUCGGGGAAAGGAAAGGAAAGGGGAAAGUAUUAUGUUACGCCGUUCGGAUCUGCACUUC,-0.114
UCCUGUGCUACACAUCGUAUGUACCGAAUCGGGGCCCCCCGGGCCCCCCGGGCCCCCCGGAAAGUAUUAUGUUACGCCGUUCGGAUCUGC,-1.66
UGGUGUUAUUUUUGCACUACAAGGGCUCUGAAGACUGCCAGGCUUGAAAUGAAGAACGAUGUCACCUGCCUAUCACAGCCAGGUGACAAU,-4.26
AAGUCCUGUGCUACACAUCGUAUGUACCGAAUCGGGAAAGGGGAAAGGGGAAAGGGAAAGUAUUAUGUUACGCCGUUCGGAUCUGCACUU,0.0669
CACAGACAACACGCACCCACACAGACACAGAGGGAAGGGGUUGGGAUGGGGACAGGGUGCACAGCAGGGCGGGGUAGGACCCGAGCCCCU,-0.384

# Set 2
# Target: CREB5, bZIP domain (human)
# Method: DHFR protein complementation
# Sample: yeast
# Notes: single substitutions, most at no-binding floor
# Reference: wild-type JUN-FOS pair
# Direction: higher = stronger binding
# Starting sequence: JUN, bZIP domain (human); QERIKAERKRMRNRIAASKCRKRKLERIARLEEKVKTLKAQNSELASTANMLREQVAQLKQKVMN; partner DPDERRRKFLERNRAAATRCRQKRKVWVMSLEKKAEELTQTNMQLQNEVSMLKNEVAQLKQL
Substitution,binding fitness
E54F,-0.791 natural log
T37I,-0.308 natural log
N42S,-0.965 natural log
S47T,-0.278 natural log
A49F,-1.33 natural log
M51P,-1.4 natural log
E44C,-0.575 natural log

# Set 3
# Target: CCNB1, cyclin fold, Cln2 fusion (human)
# Method: yeast growth competition, sequencing
# Sample: yeast
# Notes: weak parent motif
# Reference: not given
# Direction: higher = stronger binding
# Starting sequence: FZR1 docking peptide (human); QDYERRLLRQIVI
Substitution,normalised enrichment score
Y3A,0.39
I11A,1.36
Q1A,0.56
D2A,0.488
R5A,1.19
I13A,0.0227
R5K L8F,0.173

# Set 4
# Target: Interferon regulatory factor 7, full length, phosphomimetic (IRF7, Homo sapiens, UniProt Q92985, residues 1-503, S101K/S471D/S472D/S475D/S476D/S477D/S483D/S484D/S487D)
# UniProt Q92985, sequence (whole entry, unmodified, looked up): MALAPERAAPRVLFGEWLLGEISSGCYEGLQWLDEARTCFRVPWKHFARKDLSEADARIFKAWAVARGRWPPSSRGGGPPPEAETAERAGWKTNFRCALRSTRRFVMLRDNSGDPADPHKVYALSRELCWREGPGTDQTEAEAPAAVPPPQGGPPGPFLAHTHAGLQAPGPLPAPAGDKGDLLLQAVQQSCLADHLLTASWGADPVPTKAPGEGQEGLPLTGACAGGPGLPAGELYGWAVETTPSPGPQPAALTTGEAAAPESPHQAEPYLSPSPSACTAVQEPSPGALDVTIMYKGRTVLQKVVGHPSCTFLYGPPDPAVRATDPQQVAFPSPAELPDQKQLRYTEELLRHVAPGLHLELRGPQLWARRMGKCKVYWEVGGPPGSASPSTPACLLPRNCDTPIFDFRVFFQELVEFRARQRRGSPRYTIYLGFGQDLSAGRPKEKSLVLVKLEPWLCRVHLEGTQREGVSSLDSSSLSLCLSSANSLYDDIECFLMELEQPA
# Method: protein-binding microarray
# Molecule type: double-stranded DNA, one strand shown
# Sample: in vitro
# Tested at: 250 nM
# Notes: 60-bp whole probe
# With: salmon DNA 0.4 mg/ml
# Reference: random background probes
# Direction: higher = stronger binding
# Constant ends, left off below: GCCTAGCAC … GTCTTGATTCGCTTGACGCTGCTG
Strand,log fluorescence [z-score]
CTAGAACTGGGGTATCGATTAGTGCTA,0.185
TTAGGACAGGACTTTCGGTTAGTGCTA,0.892
TTGGGACTGCTTATCCTTTAGTGCTAG,-0.374
TTCTTTTCCATTTTGTGTTTGTGCTAG,3.28
TGAGGACTGGGGTATCGGTTAGTGCTA,-0.0941
CATAGAGATGCCTGTCCTCTGTGCTAG,-0.855
CTGTTTCTGTGTCACAGAGGGTGCTAG,3.33
TTAGGTTTCGGCACTGGGTTAGTGCTA,1.56
TTAGAACGGGGGACTGGATTAGTGCTA,0.869
GTAGGTATCGACACTGGGTTAGTGCTA,-0.609
TTTGGTATCCTTTTCCTTTAGTGCTAG,1.78
TTAGGTATCCTTTTCCTTAAGTGCTAG,2.16
TTAGGACTGGGGTTTCGGGTAGTGCTA,2.67
GACTGTTTCCTTCTCCTGACGTGCTAG,1.82
TTAGGTTTTCTTATCCTTTAGTGCTAG,0.976
GACGGGTCCCTTTTCCTGACGTGCTAG,1.43
GACGGACTGGGGACTGGGGAGGTGCTA,-0.519
TCTACTTCTCTTTTGGCTTTGTGCTAG,1.43
TTAGGTATCGGGTTTTGGTTAGTGCTA,1.72
TCAAACTTAGTTTTCAAACTGTGCTAG,0.365

# Set 5
# Target: RNA binding protein fox-1 homolog 2, RRM domain, GST-SBP tag (RBFOX2, Homo sapiens, UniProt O43251-10, residues 100-194)
# Method: RNA Bind-n-Seq
# Molecule type: RNA
# Sample: in vitro
# Tested at: 365 nM
# Notes: natural RNA segment, single round, ends assumed
# Reference: no-protein control
# Direction: higher = stronger binding
# Constant ends, left off below: GGGAGUUCUACAGUCCGACGAUC … UGGAAUUCUCGGGUGCCAA
# Residues (chain): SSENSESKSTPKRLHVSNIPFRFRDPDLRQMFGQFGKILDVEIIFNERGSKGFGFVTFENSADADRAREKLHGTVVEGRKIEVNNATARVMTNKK
Strand,RBNS enrichment (R)
AGGCUAUAACUUUGGAGUGAUAAGUCCUAUGGCUUUCUACAGUAGAGAACCACCCAAGGGUGUCGAUUAUAACAGAAUGUGGAGAGUGGGUGGCCGUCAUUGGGAAAGCA,4.97
CUCUCCCCUGCCCCUCUUCCCUGACCCCAGCUGGCUAGCACUGCAGAGUUUGGCUGCUGGCAGUGUGGCUGGAGGGGAGGGGAGACCACAUCUAAGGUGGGGGCCAUGGC,0.237
AGGGAAACGUGCCCUCUGUUUGAUCCUUGUUUUGUGACAUUUUUUUUUUUUUUUUUUUUACUCAAAGUUAACCUACCUGUAACUUUUUAAAAACUUGUAAAAUAACUGAC,0.948
GGUGUGCAAGGCCGAGUGAUGGCUGAUCAAUCAAAGCCGUGGUCUAGGACCAGCUCCCACGUGCCAUUUACUGCUUUCUUCACCCUCCUCAUCUGGAGUUUGAUGGUUUA,0.498
CACUUGAGAGAGGAGAGUGCUCCUCUCACCCAGGCCAGUGCUCCUGUCACUUCAGCACAUCUUCCACAGCUGCCCAGCUGUCUUUGGUGUGUCCCGGAGGAACAGGCUAA,0.195
UGUGUGUGAGUUCUACGUUUCUACCAUAUGUGAUCAGUUUAAUAGUAACUUUAUUUAUUUAAAAAAAAGAAACACAAUUAGUUACUGUUAAACUGAUAAAGGGUGUUUAU,1.41
GCAUAACCAUUUGUAUAAUGAGAAAUCUAGGGGAAAACCAAUCAGUCCAACAUGAGAUUUUAGGAAUAGAAAUUUGCCGGCCAUUUGGAAAGUGAAAUGCCACUUAGUUC,0.847
UAAGAUAUUUGUAUAUAACUUGGGCUUUGUAGCUUUUAUUUAUUCAGACUCAUAUGGCAUGUUAAUUAAUGACUUACGAUGGUGUCCUACUCUGGGCAGCUGUAUAGGAU,1.06
UCUGCUGAUAGUCCGUGCUACAUUAAGGGACUGAGCAGAGAACACUCAGUCAAGUCCUGAUCCAUUUCGUCAUGAAGAGAGCAGGACCUUUCCAUUCUAUGAAGGGUGCG,0.494
UUCUCUUCCCUUGUCCUUCCUCCUUGGCUCUUCUGUCCUUUCCUUCCCUGUGCAGACAGGACUAUGGUCUUCUUGCCCAAAGACUUUCAUCUGGACUGUCUAUAGAGUAA,0.423
CGGAUAGACAGAUCAAAUGGUGGCCCAAUAGCGAGCCUUCUCCCUGCUCCCUCCCUUGACACAGCUUGCUUAUGUUAUUUCAGAGUGUAGGUGACUUGUUUACACAGCUU,1.11
AAUCUGUCGUCGUCUUAUACAGUGUCAGCCUCGAGUACAUUUAUUAACCUUUUGGGGCUGUCAGUUUUCCACUAGGAUUAAGAUUUUGGCCGGGCGCGGUGGCUCACGCC,0.585

# Excerpt of the above (set 1):
Strand,log2 enrichment
CACAGACAACACGCACCCACACAGACACAGAGGGAAGGGGUUGGGAUGGGGACAGGGUGCACAGCAGGGCGGGGUAGGACCCGAGCCCCU,-0.384
AAGUCCUGUGCUACACAUCGUAUGUACCGAAUCGGGAAAGGGGAAAGGGGAAAGGGAAAGUAUUAUGUUACGCCGUUCGGAUCUGCACUU,0.0669
ACCAUGCAGGUGGGCAUCUUUGGGAAGUGGGGCAAGGGGGGGAUAGGGAGGGGGGUAACACUUUGGGAACAGGGGGUCCCAGGUCGUUUC,1.34
AUUUCUCAGUUGAAGGAUGCUUACACUCUUGUCCAUCUAGACCUCAAUUACUGUUUUUCAGGAAUGUCUGAUCACAGAUACGGGGAUGGU,-2.31
GUCCUGUGCUACACAUCGUAUGUACCGAAUCGGUUUUUUUGGAAAAAGGAAAAAAAGGAAAGUAUUAUGUUACGCCGUUCGGAUCUGCAC,-2.49
UGGGAGGUGGAUUUUGUUUAUUUUUUUAGCUCGUUUCCAGGGGUGGGAAUUUUUUUUUAAUAUGUGUCAUGAAUAAAGUUGUUUUUGAAA,0.609
CACAGACAACACGCACCCACACUGACACAGAGGGAAGGGGUUGGGAUGGGGACAGGGUGCACAGCAGGGCGGGGUAGGACCCCAGCCCCU,0.522
UGGUGUUAUUUUUGCACUACAAGGGCUCUGAAGACUGCCAGGCUUGAAAUGAAGAACGAUGUCACCUGCCUAUCACAGCCAGGUGACAAU,-4.26
CAAGUCCUGUGCUACACAUCGUAUGUACCGAAUCGGGGAAAGGAAAGGAAAGGGGAAAGUAUUAUGUUACGCCGUUCGGAUCUGCACUUC,-0.114
